{"data": "Measurements collected from several papers", "note": "Numbered parts are unrelated; each lists some results of a single study. Changes are numbered by the printed parent chain."}
{"data": "Study 1", "target": "Interferon regulatory factor 5, full length, phosphomimetic (IRF5, Homo sapiens, UniProt Q13568-2, residues 1-514, S451D/S453D/S456D/S462D)", "technique": "protein-binding microarray", "molecule type": "double-stranded DNA, one strand shown", "sample": "in vitro", "tested at": "940 nM top", "setting": "60-bp whole probe", "together with": "salmon DNA 0.4 mg/ml", "baseline": "random background probes", "reading": "higher = stronger binding", "constant ends, left off below": "GCCTAGCAC … GTCTTGATTCGCTTGACGCTGCTG"}
{"Strand": "TTAGGTATCGGACTGGATTAGTGCTAG", "fitted relative affinity [z-score]": 3.79}
{"Strand": "TCAGGTTTACCAGATCATACTGTGCTA", "fitted relative affinity [z-score]": -0.342}
{"Strand": "TCACTTCTCTTTTTGCTACTGTGCTAG", "fitted relative affinity [z-score]": 1.72}
{"Strand": "TTAGATATCAGTTTCGATTAGTGCTAG", "fitted relative affinity [z-score]": 8.18}
{"Strand": "TTAGGTTTCTTTATCCTTTAGTGCTAG", "fitted relative affinity [z-score]": 2.86}
{"Strand": "TTAGGTATCGGACTGGGTCAGTGCTAG", "fitted relative affinity [z-score]": 3.39}
{"Strand": "GACGGTTTCCGTTCCCTGACGTGCTAG", "fitted relative affinity [z-score]": 2.3}
{"Strand": "TCAAGTTTCATTCCTGAACTGTGCTAG", "fitted relative affinity [z-score]": 4.82}
{"Strand": "TTAGGTTGCGGTTTCGGTTAGTGCTAG", "fitted relative affinity [z-score]": 7.51}
{"Strand": "ATCCTTGTCCCTCCGGGAGCGTGCTAG", "fitted relative affinity [z-score]": -0.239}
{"Strand": "AACGATTTCGGGTTTCGAGACGTGCTA", "fitted relative affinity [z-score]": 2.26}
{"Strand": "TTAGGACTGGGCTATCGGTTAGTGCTA", "fitted relative affinity [z-score]": -0.462}
{"Strand": "TATCAGCAAACTTTTCTTGAGTGCTAG", "fitted relative affinity [z-score]": 0.853}
{"Strand": "TTAGGTTTCTGGACTGGGTTAGTGCTA", "fitted relative affinity [z-score]": 2.48}
{"Strand": "CTTTAACTCATTCTCTGCTTGTGCTAG", "fitted relative affinity [z-score]": 1.5}
{"Strand": "AAGACTTTGCTCTGTGCATAGGTGCTA", "fitted relative affinity [z-score]": -0.126}
{"data": "Study 2", "target": "ABI1, truncated, D143A, DHFR fusion (Arabidopsis thaliana)", "technique": "DHFR PCA, deep sequencing", "sample": "yeast", "setting": "methotrexate growth selection, single substitutions", "together with": "(+)-ABA 1.4 µM", "baseline": "wild-type fitted maximum", "reading": "higher = stronger binding", "starting sequence": "PYL1, truncated, DHFR fusion (Arabidopsis thaliana); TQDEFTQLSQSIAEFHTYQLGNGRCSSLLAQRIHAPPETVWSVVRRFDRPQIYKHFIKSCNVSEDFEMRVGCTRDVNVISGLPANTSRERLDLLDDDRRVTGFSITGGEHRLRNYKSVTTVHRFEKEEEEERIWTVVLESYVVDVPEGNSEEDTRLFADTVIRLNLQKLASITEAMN"}
{"Substitution": "D159W", "relative binding score": "-9.44%"}
{"Substitution": "D3K", "relative binding score": "21.7%"}
{"Substitution": "W41T", "relative binding score": "-3.54%"}
{"Substitution": "A35H", "relative binding score": "-23.5%"}
{"Substitution": "I12N", "relative binding score": "-9.13%"}
{"Substitution": "G23C", "relative binding score": "16.3%"}
{"Substitution": "K58G", "relative binding score": "5.24%"}
{"Substitution": "G148S", "relative binding score": "2.39%"}
{"Substitution": "L20V", "relative binding score": "69.6%"}
{"Substitution": "A84Y", "relative binding score": "82.8%"}
{"Substitution": "W134M", "relative binding score": "69.7%"}
{"Substitution": "D153W", "relative binding score": "0.778%"}
{"Substitution": "R45G", "relative binding score": "-13.8%"}
{"Substitution": "E129K", "relative binding score": "61.1%"}
{"Substitution": "S87M", "relative binding score": "6.4%"}
{"Substitution": "R90G", "relative binding score": "-2.9%"}
{"Substitution": "N61L", "relative binding score": "47.3%"}
{"Substitution": "V143E", "relative binding score": "-5.16%"}
{"Substitution": "A35S", "relative binding score": "11.7%"}
{"Substitution": "D153H", "relative binding score": "-4.44%"}
{"Substitution": "L20T", "relative binding score": "64.9%"}
{"Substitution": "V44H", "relative binding score": "-8.16%"}
{"data": "Study 3", "target": "RNA binding protein fox-1 homolog 2, RRM domain, GST-SBP tag (RBFOX2, Homo sapiens, UniProt O43251-10, residues 100-194)", "technique": "RNA Bind-n-Seq", "molecule type": "RNA", "sample": "in vitro", "tested at": "365 nM", "setting": "natural RNA segment, single round, ends assumed", "baseline": "no-protein control", "reading": "higher = stronger binding", "constant ends, left off below": "GGGAGUUCUACAGUCCGACGAUC … UGGAAUUCUCGGGUGCCAA", "Residues (chain)": "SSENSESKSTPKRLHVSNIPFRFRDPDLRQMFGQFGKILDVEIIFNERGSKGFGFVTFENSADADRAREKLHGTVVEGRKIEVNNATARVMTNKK"}
{"Strand": "UGUGGAUAUCUCCAUGGGAAGCUUGAACCAGGCUAGAACAGCUGUCUGCCAAAGAUACAAGAAUAUGCAAAGUCCCUCUUACCCCCCUCCUUCCCUCAAGUCUUAGUUGG", "RBNS enrichment (R)": 0.294}
{"Strand": "CCCCAUGCAACACUGGAAAUGACUGUUCCAGAGAGCGGGCAGACCUGGCAGAGCGCCCCUGGCGCCUGAGACUACCACCCACUCCGUUCCUGCCAGAAACGACCCUCUGU", "RBNS enrichment (R)": 0.554}
{"Strand": "ACUUUGGCUUUUUCAUAUACCUAGUGGUGCCUUAUCAUAAUAGCACUGUUACAUGAAAUAAGCCCCUACCUUCUUACUUUCUGGUUUGUUGAAAAAAUACACUGGUGCUC", "RBNS enrichment (R)": 0.421}
{"Strand": "CUGUGCCCUGACAAGUAGACUGGCACACUCCUGCCCCACACUCAGCCUUCUGCAGCAGGUAGGCUUGCUUCUGUUAGCUCUGCCUGGAUGCCUUUGUUCCAGAAGGCAUC", "RBNS enrichment (R)": 0.531}
{"Strand": "AAUCUGUUACUCAGUGUUAGUCUUCAUUUUUCUGUGUUGGAAACCUGCGUCAUGUAAAUAUCUGCAAAUCAUGACAGUCUAAAGUGCAAACCAUUUUCAGAGACUUUGGG", "RBNS enrichment (R)": 0.412}
{"Strand": "UGUGCCGUAGUCUACACAUUUUUAGGGGAUAUUUCACCAAAAUACUUGACAUGGUAACAUCACUAUUAUAUACUAGAAGCAAGAAUUUUACACUUAUGCUCUAAGUGAUC", "RBNS enrichment (R)": 0.23}
{"Strand": "GAAGCCAGGCAGCAGCUACAGGAGUUAUCAUCUGUGUCUUUUACCAUGAUUUGAUUUGUGUUCUCAAAGCAAGUGUGCCCUUUGGUUCUGCAGAGCAGGCCCACUUCCUG", "RBNS enrichment (R)": 0.18}
{"Strand": "CUGGUACCUGGGGUAGCCGAGGUUGCCUUCCCAUCCCUCCUUCAUCACCGGUGGAGUCCCAGGGUGACAGUCCCAGCCUGCAUUUUUGGUGGAAAAUUAGAUGGAGUGAG", "RBNS enrichment (R)": 0.48}
{"Strand": "UGGAGCAUGGCCAAGAGCCAGCUUGCACCACCCACCUGGGAGGCCGAGGAGGAGGUCCCCUGGGCACAGGGCCUCUUUGGGACUUCAGAGGAAAUCUCCCAGUCCCACUC", "RBNS enrichment (R)": 0.376}
{"Strand": "CCAACCUGGGCACCGGGCUGCGGGCAGGUGUGCAUAUCAAGCUGCCCAACCUGGGCAAGCAUGAGAAGUUCUCGGAGGUGCUUAAGCGGCUGCGACUUCAGAAGCGAGGC", "RBNS enrichment (R)": 0.299}
{"Strand": "CCACACCCCAGCUCCUAUCUUCUGUACCCGAGUGUGUCUGAUGCUCCGUGCUGUCCAGGAAUUGUUUUAUGUAUUAUUGUCAUUGCAGAAAAGGUAGUGGCCGAGCUGGU", "RBNS enrichment (R)": 0.58}
{"Strand": "AGGGUCAAAUACAGCUCUUUCUAGCAAAAUCAGGCAGCUCUGCCCCAUCGGUAGGGGCACCGAUUAGUCUACUAACAGCCAGAGGUCCAUCUAGCAGGGUGCCGGGAGGA", "RBNS enrichment (R)": 0.15}
{"data": "Study 4", "target": "Cln2 (Saccharomyces cerevisiae)", "read-out": "peptide binding", "technique": "competitive growth sequencing", "molecule type": "peptide", "organism": "Saccharomyces cerevisiae", "strain": "unfused Cln2 strain", "setting": "peptide tiling library", "reading": "direction not given"}
{"Molecule": "SAVPLILPQAPSGPSY", "enrichment score": 1.11}
{"Molecule": "SMTDFYHSKRRLIFSK", "enrichment score": -0.443}
{"Molecule": "PKRAKRKLYTSEISSP", "enrichment score": -0.398}
{"Molecule": "TARRIFQEPTEPKTKA", "enrichment score": -0.888}
{"Molecule": "DTERAHSTLDEDLERW", "enrichment score": 0.206}
{"Molecule": "SSEVARHLLFQSHM", "enrichment score": -0.745}
{"Molecule": "FQDSGYNELKSCSFDN", "enrichment score": 0.207}
{"Molecule": "GLPDFVFQQQPVESEA", "enrichment score": 0.837}
{"Molecule": "PAKRRLELGE", "enrichment score": 0.059}
{"Molecule": "KPKPVKPVTFSTGIKM", "enrichment score": 1.7}
{"Molecule": "PARRRLRLSVDEVSSP", "enrichment score": -0.425}
{"Molecule": "VLVRTSACRSLFGPVD", "enrichment score": -0.926}
{"Molecule": "DGCSPIKNWSPMRL", "enrichment score": 0.0478}
{"Molecule": "PKNAKRNLSSEFAN", "enrichment score": -0.671}
{"Molecule": "KPHVSDEEEEEPPFYH", "enrichment score": 0.853}
{"Molecule": "IVLICAKRSLCAAFSV", "enrichment score": -1.09}
{"Molecule": "KRNLLNEFDRII", "enrichment score": 0.732}
{"note": "Repeated from above (study 2):"}
{"Substitution": "D153W", "relative binding score": "0.778%"}
{"Substitution": "V143E", "relative binding score": "-5.16%"}
{"Substitution": "A35H", "relative binding score": "-23.5%"}
{"Substitution": "L20T", "relative binding score": "64.9%"}
{"Substitution": "V44H", "relative binding score": "-8.16%"}
{"Substitution": "D3K", "relative binding score": "21.7%"}
{"Substitution": "S87M", "relative binding score": "6.4%"}
{"Substitution": "A35S", "relative binding score": "11.7%"}
{"Substitution": "A84Y", "relative binding score": "82.8%"}
{"Substitution": "E129K", "relative binding score": "61.1%"}
{"Substitution": "L20V", "relative binding score": "69.6%"}
